# Assay results pooled from the literature.
# Numbered parts are unrelated; each lists some results of a single study.
# UniProt Q9BWU1, sequence (whole entry, looked up): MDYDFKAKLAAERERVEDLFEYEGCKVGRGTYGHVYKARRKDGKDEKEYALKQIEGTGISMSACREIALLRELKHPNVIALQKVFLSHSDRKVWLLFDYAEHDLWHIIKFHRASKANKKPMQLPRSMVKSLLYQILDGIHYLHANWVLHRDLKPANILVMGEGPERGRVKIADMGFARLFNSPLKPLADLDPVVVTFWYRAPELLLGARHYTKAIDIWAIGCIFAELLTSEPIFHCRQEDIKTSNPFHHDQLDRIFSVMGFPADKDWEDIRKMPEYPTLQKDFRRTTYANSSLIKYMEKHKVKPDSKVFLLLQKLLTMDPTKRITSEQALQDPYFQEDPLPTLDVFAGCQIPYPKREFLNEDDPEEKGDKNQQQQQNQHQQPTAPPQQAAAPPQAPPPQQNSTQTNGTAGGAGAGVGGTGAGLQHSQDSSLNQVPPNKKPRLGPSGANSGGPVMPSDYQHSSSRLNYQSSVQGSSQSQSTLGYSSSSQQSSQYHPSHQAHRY
# UniProt Q96Q40, sequence (whole entry, looked up): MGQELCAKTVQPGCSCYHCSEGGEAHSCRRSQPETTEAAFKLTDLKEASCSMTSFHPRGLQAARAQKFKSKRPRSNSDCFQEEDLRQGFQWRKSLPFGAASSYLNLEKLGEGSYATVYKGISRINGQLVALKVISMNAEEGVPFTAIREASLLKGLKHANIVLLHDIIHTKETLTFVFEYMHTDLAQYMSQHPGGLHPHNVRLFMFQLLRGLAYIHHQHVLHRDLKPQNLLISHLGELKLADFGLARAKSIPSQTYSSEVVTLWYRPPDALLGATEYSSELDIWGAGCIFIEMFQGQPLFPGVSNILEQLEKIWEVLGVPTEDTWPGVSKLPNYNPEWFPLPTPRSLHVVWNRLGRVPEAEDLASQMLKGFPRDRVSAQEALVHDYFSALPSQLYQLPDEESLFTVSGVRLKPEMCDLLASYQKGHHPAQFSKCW
# UniProt Q9H093, sequence (whole entry, looked up): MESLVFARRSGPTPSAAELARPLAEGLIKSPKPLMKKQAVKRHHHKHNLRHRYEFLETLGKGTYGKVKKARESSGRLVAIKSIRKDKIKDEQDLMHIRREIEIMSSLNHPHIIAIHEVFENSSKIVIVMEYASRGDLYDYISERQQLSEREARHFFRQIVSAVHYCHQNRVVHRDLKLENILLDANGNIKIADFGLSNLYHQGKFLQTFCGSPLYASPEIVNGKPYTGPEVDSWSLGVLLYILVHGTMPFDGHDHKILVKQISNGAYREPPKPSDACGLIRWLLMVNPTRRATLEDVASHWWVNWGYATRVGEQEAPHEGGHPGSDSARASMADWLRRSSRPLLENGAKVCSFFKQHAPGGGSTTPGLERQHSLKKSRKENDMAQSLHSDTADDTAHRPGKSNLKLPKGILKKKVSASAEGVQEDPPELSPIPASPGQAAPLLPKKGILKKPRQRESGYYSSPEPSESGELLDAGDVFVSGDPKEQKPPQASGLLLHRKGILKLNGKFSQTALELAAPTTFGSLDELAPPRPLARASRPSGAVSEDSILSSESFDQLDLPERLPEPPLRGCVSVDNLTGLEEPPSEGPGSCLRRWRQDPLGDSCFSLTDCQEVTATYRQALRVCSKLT

# Sample 1
# Cell line: HEK-293T/ACE2
# Read-out: pseudovirus infection
# Technique: counter-screen
# Organism: VSV pseudotyped with VSV-G
# Concentration: 10 µM
# Time: 16 h
# Reference: vehicle-treated
Structure (SMILES),GFP-positive cells [%]
CC1=C(/C=C/C(C)=C/C=C/C(C)=C/C=C/C=C(C)/C=C/C=C(C)/C=C/C2=C(C)CCCC2(C)C)C(C)(C)CCC1,107
CC1(C)O[C@@H]2C[C@H]3[C@@H]4C[C@H](F)C5=CC(=O)C=C[C@]5(C)[C@H]4[C@@H](O)C[C@]3(C)[C@]2(C(=O)CO)O1,106
CCCc1nc2c(C)cc(-c3nc4ccccc4n3C)cc2n1Cc1ccc(-c2ccccc2C(=O)O)cc1,98.4
N#Cc1ccc(C(c2ccc(C#N)cc2)n2cncn2)cc1,123
CCOc1nc2cccc(C(=O)OC(C)OC(=O)OC3CCCCC3)c2n1Cc1ccc(-c2ccccc2-c2nnn[nH]2)cc1 (stereo not drawn),3.44
C[C@]12CCC(=O)C=C1CC[C@@H]1[C@@H]2[C@@H](O)C[C@@]2(C)[C@H]1CC[C@]2(O)C(=O)CO,110
O=NN(CCCl)C(=O)NC1CCCCC1,109
Fc1ccc([C@@H]2CCNC[C@H]2COc2ccc3c(c2)OCO3)cc1,112
CNC(=C[N+](=O)[O-])NCCSCc1csc(CN(C)C)n1,109
C#C[C@]1(O)CC[C@H]2[C@@H]3CCC4=CC(=O)CC[C@@H]4[C@H]3CC[C@@]21C,102
C#CCN(C)Cc1ccccc1,122
CC1=C(/C=C/C(C)=C/C=C/C(C)=C\C(=O)O)C(C)(C)CCC1,99.9

# Sample 2
# SMILES: Cn1cncc1[C@@](O)(COc1ccc(C#N)cc1-c1ccc(OC(F)(F)F)cc1)c1ccc(C#N)cc1
# Concentration: 1 µM
target,read-out,technique,remaining binding
"FYN (Homo sapiens, UniProt P06241)",cell-free assay,competition with immobilised ligand,97%
"EPHA6 (Homo sapiens, UniProt Q9UF33)",cell-free assay,competition with immobilised ligand,3%
"Non-receptor tyrosine-protein kinase TYK2, JH1 (TYK2, Homo sapiens, UniProt P29597)",cell-free assay,competition with immobilised ligand,92%
"NEK1 (Homo sapiens, UniProt Q96PY6)",cell-free assay,competition with immobilised ligand,100%
"pknB (Mycobacterium tuberculosis, UniProt P9WI81)",cell-free assay,competition with immobilised ligand,78%
"CDK19 (Homo sapiens, UniProt Q9BWU1)",,competition binding,64%
"SIK2 (Homo sapiens, UniProt Q9H0K1)",cell-free assay,competition with immobilised ligand,100%
"MAST1 (Homo sapiens, UniProt Q9Y2H9)",cell-free assay,competition with immobilised ligand,100%
"ALK (Homo sapiens, UniProt Q9UM73, C1156Y)",cell-free assay,competition with immobilised ligand,98%
"FGFR1 (Homo sapiens, UniProt P11362)",cell-free assay,competition with immobilised ligand,100%
"NUAK2 (Homo sapiens, UniProt Q9H093)",cell-free assay,competition with immobilised ligand,100%
"PRKD1 (Homo sapiens, UniProt Q15139)",cell-free assay,competition with immobilised ligand,98%
"FLT1 (Homo sapiens, UniProt P17948)",cell-free assay,competition with immobilised ligand,83%
"MET (Homo sapiens, UniProt P08581, M1250T)",cell-free assay,competition with immobilised ligand,97%
"CDK15 (Homo sapiens, UniProt Q96Q40)",cell-free assay,competition with immobilised ligand,100%
"EPHA3 (Homo sapiens, UniProt P29320)",cell-free assay,competition with immobilised ligand,100%
"KIT (Homo sapiens, UniProt P10721, D816H)",cell-free assay,competition with immobilised ligand,100%

# Sample 3
# Target: DNA polymerase theta, ATPase domain (POLQ, Homo sapiens, UniProt O75417)
# UniProt O75417, sequence (whole entry, unmodified, looked up): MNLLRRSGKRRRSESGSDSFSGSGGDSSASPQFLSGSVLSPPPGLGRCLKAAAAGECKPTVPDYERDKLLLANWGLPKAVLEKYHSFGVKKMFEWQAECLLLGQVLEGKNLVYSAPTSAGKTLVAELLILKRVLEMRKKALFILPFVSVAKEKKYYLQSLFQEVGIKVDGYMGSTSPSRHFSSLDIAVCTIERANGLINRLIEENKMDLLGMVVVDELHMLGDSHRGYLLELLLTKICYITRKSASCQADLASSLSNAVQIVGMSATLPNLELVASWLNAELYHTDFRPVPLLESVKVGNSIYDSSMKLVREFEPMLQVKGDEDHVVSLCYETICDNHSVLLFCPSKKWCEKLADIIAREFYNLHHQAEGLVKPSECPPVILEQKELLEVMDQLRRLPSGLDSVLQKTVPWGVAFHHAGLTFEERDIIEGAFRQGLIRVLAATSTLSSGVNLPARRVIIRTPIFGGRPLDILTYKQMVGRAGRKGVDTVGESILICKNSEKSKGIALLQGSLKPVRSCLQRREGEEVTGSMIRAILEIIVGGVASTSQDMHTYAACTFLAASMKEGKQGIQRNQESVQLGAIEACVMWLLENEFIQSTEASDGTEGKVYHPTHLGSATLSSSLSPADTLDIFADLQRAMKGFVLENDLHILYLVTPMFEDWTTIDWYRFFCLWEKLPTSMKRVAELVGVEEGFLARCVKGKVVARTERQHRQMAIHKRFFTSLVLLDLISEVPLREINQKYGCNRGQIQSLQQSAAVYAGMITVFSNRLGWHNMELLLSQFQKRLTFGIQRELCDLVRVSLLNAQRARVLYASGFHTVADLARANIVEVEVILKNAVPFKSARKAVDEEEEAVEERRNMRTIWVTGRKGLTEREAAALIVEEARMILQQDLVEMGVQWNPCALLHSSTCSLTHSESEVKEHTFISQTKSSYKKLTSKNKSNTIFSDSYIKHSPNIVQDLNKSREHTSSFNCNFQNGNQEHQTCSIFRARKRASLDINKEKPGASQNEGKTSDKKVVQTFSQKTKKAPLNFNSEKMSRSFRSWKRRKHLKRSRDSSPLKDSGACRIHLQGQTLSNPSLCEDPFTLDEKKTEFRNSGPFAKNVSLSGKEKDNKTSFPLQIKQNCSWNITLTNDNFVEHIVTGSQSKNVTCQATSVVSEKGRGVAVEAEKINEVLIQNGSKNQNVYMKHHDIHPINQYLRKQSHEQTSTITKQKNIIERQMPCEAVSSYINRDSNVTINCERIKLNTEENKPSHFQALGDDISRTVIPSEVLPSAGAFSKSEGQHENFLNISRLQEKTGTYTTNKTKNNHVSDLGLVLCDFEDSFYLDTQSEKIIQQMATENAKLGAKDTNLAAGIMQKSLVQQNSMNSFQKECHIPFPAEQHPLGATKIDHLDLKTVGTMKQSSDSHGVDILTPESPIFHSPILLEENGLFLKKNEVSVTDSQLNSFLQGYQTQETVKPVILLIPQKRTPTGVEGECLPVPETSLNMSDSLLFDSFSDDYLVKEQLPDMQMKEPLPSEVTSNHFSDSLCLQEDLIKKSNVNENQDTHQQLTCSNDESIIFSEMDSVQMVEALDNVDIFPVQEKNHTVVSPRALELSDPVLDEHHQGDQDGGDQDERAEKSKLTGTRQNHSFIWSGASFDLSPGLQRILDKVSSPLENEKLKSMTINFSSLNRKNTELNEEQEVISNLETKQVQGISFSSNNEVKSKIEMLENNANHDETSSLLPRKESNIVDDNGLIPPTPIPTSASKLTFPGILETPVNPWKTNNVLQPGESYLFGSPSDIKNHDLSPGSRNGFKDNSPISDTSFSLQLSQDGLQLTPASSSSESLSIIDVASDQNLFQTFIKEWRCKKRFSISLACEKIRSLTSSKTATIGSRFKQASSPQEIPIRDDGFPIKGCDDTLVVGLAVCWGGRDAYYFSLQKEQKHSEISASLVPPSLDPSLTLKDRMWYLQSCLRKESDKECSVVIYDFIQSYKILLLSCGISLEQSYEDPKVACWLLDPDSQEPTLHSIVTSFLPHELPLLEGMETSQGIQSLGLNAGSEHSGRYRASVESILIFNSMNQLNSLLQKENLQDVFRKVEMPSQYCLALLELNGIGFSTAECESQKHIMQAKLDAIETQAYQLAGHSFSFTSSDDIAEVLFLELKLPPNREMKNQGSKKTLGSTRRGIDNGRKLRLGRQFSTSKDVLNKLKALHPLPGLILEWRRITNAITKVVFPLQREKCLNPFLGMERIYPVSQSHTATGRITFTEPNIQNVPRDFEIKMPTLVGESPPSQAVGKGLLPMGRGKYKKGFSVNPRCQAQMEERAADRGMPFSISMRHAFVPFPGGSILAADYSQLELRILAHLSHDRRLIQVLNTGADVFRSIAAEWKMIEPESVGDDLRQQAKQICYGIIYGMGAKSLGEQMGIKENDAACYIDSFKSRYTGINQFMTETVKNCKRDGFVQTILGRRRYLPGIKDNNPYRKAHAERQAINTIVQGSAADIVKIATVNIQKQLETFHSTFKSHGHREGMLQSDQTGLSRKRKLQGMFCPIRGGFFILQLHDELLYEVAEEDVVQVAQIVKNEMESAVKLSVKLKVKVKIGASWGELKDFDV
# Read-out: enzyme activity
# Mode: inhibitor
# Concentration: 77 µM
# Reference: untreated
Compound,remaining activity [%]
Nc1ccncc1,88.2
Oc1ccc2c3c1O[C@H]1c4[nH]c5ccccc5c4C[C@@]4(O)[C@@H](C2)N(CC2CC2)CC[C@]314,105
CS(=N)(=O)CC[C@H](N)C(=O)O (stereo partly drawn),101
c1cncc(C2=NCCC2)c1,98.5
COC(=O)[C@@H](N)CCCNC(=N)N[N+](=O)[O-],103

# Sample 4
# Target: Leukocyte tyrosine kinase receptor (LTK, Homo sapiens, UniProt P29376)
# UniProt P29376, sequence (whole entry, looked up): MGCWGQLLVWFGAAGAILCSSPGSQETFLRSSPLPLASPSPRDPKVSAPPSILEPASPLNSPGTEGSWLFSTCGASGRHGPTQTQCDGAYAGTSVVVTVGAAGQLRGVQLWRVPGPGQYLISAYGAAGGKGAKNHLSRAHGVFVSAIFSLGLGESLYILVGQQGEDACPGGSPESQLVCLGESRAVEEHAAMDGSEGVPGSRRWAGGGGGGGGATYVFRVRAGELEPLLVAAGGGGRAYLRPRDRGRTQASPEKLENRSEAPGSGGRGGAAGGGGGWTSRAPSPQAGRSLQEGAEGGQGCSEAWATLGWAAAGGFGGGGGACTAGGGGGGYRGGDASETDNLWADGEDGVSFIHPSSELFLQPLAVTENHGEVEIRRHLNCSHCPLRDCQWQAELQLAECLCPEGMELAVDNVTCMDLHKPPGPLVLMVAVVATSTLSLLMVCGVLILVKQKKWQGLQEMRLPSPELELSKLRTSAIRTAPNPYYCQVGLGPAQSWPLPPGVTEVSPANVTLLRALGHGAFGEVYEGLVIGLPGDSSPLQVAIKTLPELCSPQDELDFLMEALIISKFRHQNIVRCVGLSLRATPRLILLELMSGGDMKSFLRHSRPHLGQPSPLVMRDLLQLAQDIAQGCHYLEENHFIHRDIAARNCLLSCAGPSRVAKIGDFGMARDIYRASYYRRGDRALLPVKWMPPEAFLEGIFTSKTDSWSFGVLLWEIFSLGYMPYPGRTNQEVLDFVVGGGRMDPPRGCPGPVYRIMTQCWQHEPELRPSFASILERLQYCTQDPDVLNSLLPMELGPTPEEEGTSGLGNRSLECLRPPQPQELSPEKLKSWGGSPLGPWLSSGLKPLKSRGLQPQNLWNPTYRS
# Read-out: enzyme activity
# Mode: inhibitor
# Technique: radiometric
# Concentration: 0.5 µM
Compound,remaining activity [%]
O=C1Nc2ccccc2/C1=C\c1c(Cl)[nH]c2ccccc12,95.1
O=C1NC(=O)c2c1c1c3ccccc3[nH]c1c1[nH]c3cc(Br)ccc3c21,89.9
CCCCc1c(-c2ccc(OC)cc2)[nH]c2nccnc12,83.9
O=C(c1cc2cc(O)ccc2[nH]1)c1cc2cc(O)ccc2[nH]1,91.6
N#Cc1cnc2cnc(NCc3cccnc3)cc2c1Nc1ccc(F)c(Cl)c1,95.6
